Published values pooled from the literature.
Each line is one published result; not all experiments were run side by side. Several values in a cell are separate wells, animals, samples, runs or records.
CHEK1: Serine/threonine-protein kinase Chk1 (CHEK1, Homo sapiens, UniProt O14757)
UniProt O14757, sequence (whole entry, looked up): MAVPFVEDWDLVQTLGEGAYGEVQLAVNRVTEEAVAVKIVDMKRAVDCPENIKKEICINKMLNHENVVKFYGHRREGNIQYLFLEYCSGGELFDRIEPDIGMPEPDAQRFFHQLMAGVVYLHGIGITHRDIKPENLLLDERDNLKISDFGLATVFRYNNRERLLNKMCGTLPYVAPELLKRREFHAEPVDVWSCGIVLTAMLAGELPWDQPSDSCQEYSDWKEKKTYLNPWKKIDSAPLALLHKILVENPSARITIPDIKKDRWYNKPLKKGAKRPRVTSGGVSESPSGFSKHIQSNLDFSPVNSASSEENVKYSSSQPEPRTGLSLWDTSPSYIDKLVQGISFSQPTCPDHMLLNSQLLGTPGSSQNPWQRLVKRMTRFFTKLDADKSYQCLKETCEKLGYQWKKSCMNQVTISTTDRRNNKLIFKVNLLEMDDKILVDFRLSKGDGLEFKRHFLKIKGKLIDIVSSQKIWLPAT
rep papain-like protease: Replicase polyprotein 1ab, papain-like protease (rep, Porcine epidemic diarrhea virus, UniProt P0C6Y4)
FLT3 ITD: Receptor-type tyrosine-protein kinase FLT3 (FLT3, Homo sapiens, UniProt P36888, ITD)
CA9: Carbonic anhydrase 9 (CA9, Homo sapiens, UniProt Q16790)
DYRK1A: Dual specificity tyrosine-phosphorylation-regulated kinase 1A (DYRK1A, Homo sapiens, UniProt Q13627)
PIK3CD: Phosphatidylinositol 4,5-bisphosphate 3-kinase catalytic subunit delta isoform (PIK3CD, Homo sapiens, UniProt O00329)
UniProt O00329, sequence (whole entry, looked up): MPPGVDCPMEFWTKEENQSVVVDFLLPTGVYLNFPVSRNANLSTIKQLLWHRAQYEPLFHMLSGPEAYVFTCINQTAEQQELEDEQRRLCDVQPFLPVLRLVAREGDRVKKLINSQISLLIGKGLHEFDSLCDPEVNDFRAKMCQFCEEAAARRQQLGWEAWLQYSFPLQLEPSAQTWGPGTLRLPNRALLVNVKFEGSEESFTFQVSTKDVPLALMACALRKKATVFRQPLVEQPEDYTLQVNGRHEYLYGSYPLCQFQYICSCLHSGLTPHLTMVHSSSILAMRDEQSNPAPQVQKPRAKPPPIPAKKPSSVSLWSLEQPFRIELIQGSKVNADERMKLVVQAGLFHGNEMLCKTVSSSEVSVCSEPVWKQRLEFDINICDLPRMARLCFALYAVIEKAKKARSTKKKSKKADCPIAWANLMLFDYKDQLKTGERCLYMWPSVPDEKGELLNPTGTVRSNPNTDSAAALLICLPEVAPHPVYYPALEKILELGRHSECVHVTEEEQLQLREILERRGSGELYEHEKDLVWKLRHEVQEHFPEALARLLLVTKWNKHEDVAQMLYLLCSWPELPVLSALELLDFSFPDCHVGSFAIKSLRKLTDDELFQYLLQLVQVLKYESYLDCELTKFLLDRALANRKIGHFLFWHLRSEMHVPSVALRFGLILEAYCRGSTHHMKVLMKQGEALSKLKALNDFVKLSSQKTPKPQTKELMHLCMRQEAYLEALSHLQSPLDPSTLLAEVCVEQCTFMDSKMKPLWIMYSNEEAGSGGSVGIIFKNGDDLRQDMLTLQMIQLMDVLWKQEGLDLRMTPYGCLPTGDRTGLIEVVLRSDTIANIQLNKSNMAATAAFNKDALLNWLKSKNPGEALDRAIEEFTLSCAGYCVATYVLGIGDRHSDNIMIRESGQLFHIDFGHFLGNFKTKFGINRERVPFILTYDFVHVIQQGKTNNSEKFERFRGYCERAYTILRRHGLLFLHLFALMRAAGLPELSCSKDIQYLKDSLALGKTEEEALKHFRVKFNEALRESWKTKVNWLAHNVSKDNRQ
PIK3CA: Phosphatidylinositol 4,5-bisphosphate 3-kinase catalytic subunit alpha isoform (PIK3CA, Homo sapiens, UniProt P42336)
UniProt P42336, sequence (whole entry, looked up): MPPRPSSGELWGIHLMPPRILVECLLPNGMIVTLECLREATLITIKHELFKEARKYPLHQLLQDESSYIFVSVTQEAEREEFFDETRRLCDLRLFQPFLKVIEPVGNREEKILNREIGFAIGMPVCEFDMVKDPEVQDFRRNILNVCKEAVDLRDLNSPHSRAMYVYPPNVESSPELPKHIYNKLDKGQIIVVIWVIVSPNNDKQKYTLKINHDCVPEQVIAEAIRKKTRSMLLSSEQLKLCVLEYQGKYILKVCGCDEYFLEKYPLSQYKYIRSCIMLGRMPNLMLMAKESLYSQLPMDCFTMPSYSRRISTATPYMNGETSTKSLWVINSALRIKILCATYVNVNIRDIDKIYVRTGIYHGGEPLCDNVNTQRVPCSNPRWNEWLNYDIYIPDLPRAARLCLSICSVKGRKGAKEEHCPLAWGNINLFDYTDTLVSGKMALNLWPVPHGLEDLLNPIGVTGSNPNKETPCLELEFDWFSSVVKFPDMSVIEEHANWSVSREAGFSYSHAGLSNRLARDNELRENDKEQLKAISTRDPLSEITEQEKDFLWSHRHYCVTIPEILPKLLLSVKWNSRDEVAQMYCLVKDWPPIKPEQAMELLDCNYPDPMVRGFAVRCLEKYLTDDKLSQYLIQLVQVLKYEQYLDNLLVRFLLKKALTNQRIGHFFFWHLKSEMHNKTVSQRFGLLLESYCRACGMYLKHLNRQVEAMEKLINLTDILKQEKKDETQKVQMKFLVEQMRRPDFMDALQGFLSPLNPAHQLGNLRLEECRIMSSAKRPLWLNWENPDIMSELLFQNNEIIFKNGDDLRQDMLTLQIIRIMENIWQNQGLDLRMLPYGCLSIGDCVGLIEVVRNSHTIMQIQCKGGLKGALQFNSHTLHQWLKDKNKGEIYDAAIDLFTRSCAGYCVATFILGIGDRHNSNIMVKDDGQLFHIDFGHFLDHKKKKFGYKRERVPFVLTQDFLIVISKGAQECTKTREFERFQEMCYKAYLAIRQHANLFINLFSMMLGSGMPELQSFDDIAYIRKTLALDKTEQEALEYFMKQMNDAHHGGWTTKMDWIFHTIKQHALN
AMY2: Pancreatic alpha-amylase (AMY2, Sus scrofa, UniProt P00690)
CDK4 with cyclin D1: Cyclin-dependent kinase 4, with cyclin D1 (CDK4, Homo sapiens, UniProt P11802)
PPO3: PPO3 (Agaricus bisporus, UniProt C7FF04)
UniProt C7FF04, sequence (whole entry, looked up): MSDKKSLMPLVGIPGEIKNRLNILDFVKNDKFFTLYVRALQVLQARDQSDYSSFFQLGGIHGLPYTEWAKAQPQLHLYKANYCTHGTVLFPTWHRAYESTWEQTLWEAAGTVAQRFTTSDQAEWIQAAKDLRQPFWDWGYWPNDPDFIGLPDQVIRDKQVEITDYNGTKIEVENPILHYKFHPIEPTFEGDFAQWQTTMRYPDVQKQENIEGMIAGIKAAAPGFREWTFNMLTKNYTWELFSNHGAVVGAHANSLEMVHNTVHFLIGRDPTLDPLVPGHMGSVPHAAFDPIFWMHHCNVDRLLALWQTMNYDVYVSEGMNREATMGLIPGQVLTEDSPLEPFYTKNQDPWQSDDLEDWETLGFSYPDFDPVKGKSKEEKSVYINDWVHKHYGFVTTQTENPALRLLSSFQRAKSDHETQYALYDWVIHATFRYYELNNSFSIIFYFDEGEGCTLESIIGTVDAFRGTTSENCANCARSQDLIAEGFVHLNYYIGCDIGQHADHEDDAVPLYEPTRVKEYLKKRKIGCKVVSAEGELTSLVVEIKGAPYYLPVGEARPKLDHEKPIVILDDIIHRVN
PIK3CG: Phosphatidylinositol 4,5-bisphosphate 3-kinase catalytic subunit gamma isoform (PIK3CG, Homo sapiens, UniProt P48736)
UniProt Q7Z3E1, sequence (whole entry, looked up): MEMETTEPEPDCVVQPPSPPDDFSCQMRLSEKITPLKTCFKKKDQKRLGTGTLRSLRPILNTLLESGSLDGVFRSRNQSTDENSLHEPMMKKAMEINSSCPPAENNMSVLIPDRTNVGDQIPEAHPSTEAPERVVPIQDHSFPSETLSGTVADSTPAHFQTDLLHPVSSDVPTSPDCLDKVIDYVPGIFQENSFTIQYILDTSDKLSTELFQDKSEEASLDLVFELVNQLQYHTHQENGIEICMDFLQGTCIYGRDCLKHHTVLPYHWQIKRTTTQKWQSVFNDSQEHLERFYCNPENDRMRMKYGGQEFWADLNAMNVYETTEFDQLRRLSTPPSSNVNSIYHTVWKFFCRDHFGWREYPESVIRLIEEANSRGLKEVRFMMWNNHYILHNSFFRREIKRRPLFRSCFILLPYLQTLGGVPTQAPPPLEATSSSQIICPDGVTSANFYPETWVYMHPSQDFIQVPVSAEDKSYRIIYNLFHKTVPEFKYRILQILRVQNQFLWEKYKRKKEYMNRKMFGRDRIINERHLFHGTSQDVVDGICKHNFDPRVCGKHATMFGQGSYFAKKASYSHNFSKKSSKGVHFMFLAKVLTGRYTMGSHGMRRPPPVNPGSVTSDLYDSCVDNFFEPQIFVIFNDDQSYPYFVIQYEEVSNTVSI

`C/C(=N\CC(C)C)c1c(O)c2ccccc2oc1=O` gave an IC50 of less than 100000 nM (Myosin-7 (MYH7, Bos taurus, UniProt Q9BE39); ATPase activity, inhibitor).
`COc1cc(-c2ccc(-c3[nH]nc4c3C(=O)c3ccccc3-4)cc2)ccc1O` gave an IC50 of greater than 10000 nM (CHEK1; enzyme activity, inhibitor).
With `CN(C)c1ccc(C(=O)NCc2cc(O)c(O)c(Br)c2)cc1` the IC50 was 7130 nM (rep papain-like protease; enzyme activity, inhibitor, FRET).
For `Cc1n[nH]c2ccc3nc(-c4ccc(C(=O)NCCN(C)C)nc4)c4c(c3c12)CCCCC4`, the IC50 was 330 nM (FLT3 ITD; enzyme activity, inhibitor).
`CNC(=O)c1ccc(N2CCN(C(=O)c3ccc(S(N)(=O)=O)c(Br)c3)CC2)c2cc[nH]c12` has an IC50 of 38.9 nM (CA9; enzyme activity, inhibitor).
`Nc1ncnc2c1c(Oc1cc(C(F)(F)F)ccn1)nn2C1CC1` gave an IC50 of < 10000 nM and 5780 nM (Cytochrome P450 2C19 (CYP2C19, Homo sapiens, UniProt P33261); enzyme activity, inhibitor; human, liver microsomes; 10 min).
For `c1cnn2ncc(-c3ccnc(N4CCCNCC4)n3)c2c1`, the IC50 was 1290 nM (DYRK1A; cell-free assay, TR-FRET).
With `CC(OC(=O)C=Cc1ccco1)C(=O)Nc1ccc(S(N)(=O)=O)cc1` (stereo not drawn) the IC50 was 39.8 nM (CA9; enzyme activity, inhibitor).
The IC50 of `CN(C)C(=O)c1cc2cnc(Nc3ccc4c(=O)cc(N5CCOCC5)oc4c3)nc2n1C1CCCC1` is reported as 25.2 nM (PIK3CD; enzyme activity, inhibitor, radiometric).
With `Cn1nc2c(=O)n(C3CC3)ncc2c1[C@](N)(c1ccc(C(F)(F)F)c(Cl)c1)C1CC1` the IC50 was 2700 nM (Dihydroorotate dehydrogenase (quinone), mitochondrial (Dhodh, Mus musculus, UniProt O35435); enzyme activity, inhibitor, absorbance).
`O=C(NCc1cc(O)c(O)c(Br)c1)c1ccc(Cl)c(F)c1` has an IC50 of 1830 nM (Replicase polyprotein 1ab, main protease (rep, Porcine epidemic diarrhea virus, UniProt P0C6Y4); enzyme activity, inhibitor, FRET).
For `NS(=O)(=O)c1cccc(NC(=O)COC(=O)c2ccc(-c3ccc(O)cc3)cc2)c1`, the IC50 was 256 nM (CA9; enzyme activity, inhibitor).
For `Cc1nc(Nc2ccc3c(c2)/C(=C/c2ccccc2)C(=O)N3C)c2ccccc2n1`, the IC50 was 18.4 nM (PIK3CA; enzyme activity, inhibitor, ADP detection).
For `Cc1ccc2[nH]c(=O)c(CNC3CCCCC3)cc2c1`, the IC50 was 2880 nM (Alpha-1B adrenergic receptor (ADRA1B, Homo sapiens, UniProt P35368); calcium signal, antagonist).
For `COc1cc(-c2ccc3c(c2)Nc2ccc(NC(=O)CCS(=O)(=O)c4ccccc4)cc2NC3=O)ccc1[N+](=O)[O-]`, the IC50 was 7.17 nM (CHEK1; enzyme activity, inhibitor).
For `CC[C@@](O)(c1cnc(C(F)(F)F)c(Cl)c1)c1c2cnn(C3CC3)c(=O)c2nn1C`, the IC50 was greater than 30000 nM (Dihydroorotate dehydrogenase (quinone), mitochondrial (Rattus norvegicus, UniProt Q63707); enzyme activity, inhibitor, absorbance).
`Cc1ccc(CN2C(=O)C(=Nc3cccc(C)c3)c3ccccc32)cc1` gave an IC50 of 17.9 nM (PIK3CA; enzyme activity, inhibitor, ADP detection).
`COCCCNC(=O)c1ccc(-c2nc3ccc4[nH]ncc4c3c3c2CCCC3)cc1` gave an IC50 of greater than 1000 nM (FLT3 ITD; enzyme activity, inhibitor).
With `Clc1ccc(/C=N/N=C/c2ccc(Cl)cc2)cc1` the IC50 was 494000 nM (AMY2; enzyme activity, inhibitor).
For `c1cnn2ncc(-c3ccnc(N4C[C@@H]5C[C@H]4CO5)n3)c2c1`, the IC50 was 2820 nM (DYRK1A; cell-free assay, TR-FRET).
For `Cc1nn(C)c2ncc(C(=O)Nc3ccccc3)c(Cl)c12`, the IC50 was greater than 250000 nM (60 kDa heat shock protein, mitochondrial (Homo sapiens, UniProt P10809); ATPase activity, inhibitor).
With `Cc1ccc(Nc2ccccc2N)cc1` the IC50 was 37000 nM (Beta-2 adrenergic receptor (ADRB2, Homo sapiens, UniProt P07550); calcium signal, antagonist, fluorescence).
The IC50 of `CN(C)C(=O)c1cc2cnc(Nc3ccc(-c4ccc5c(=O)cc(N6CCNCC6)oc5c4)cc3)nc2n1C1CCCC1` is reported as 4.5 nM (CDK4 with cyclin D1; enzyme activity, inhibitor, radiometric).
The IC50 of `O=C(NCc1cc(O)c(O)c(Br)c1)c1ccno1` is reported as 2140 nM (rep papain-like protease; enzyme activity, inhibitor, FRET).
`NC(=O)c1ccc[n+]([C@@H]2O[C@H](COP(=O)([O-])OP(=O)(O)OC[C@H]3O[C@@H](n4cnc5c(N)ncnc54)[C@H](O)[C@@H]3O)[C@@H](O)[C@H]2O)c1` has an IC50 of 1100 nM and 1200 nM (Protein mono-ADP-ribosyltransferase TIPARP (TIPARP, Homo sapiens, UniProt Q7Z3E1); enzyme activity, inhibitor).
The IC50 of `CC(=O)Nc1ccc(NC(=O)CN(Cc2ccc(Cl)cc2)C(=O)c2ccc(S(N)(=O)=O)c(C)c2)c(F)c1` is reported as 15.1 nM (CA9; enzyme activity, inhibitor).
The IC50 of `O=C1C(=Nc2ccccc2I)c2ccccc2N1Cc1cccc(Cl)c1` is reported as 59.2 nM (PIK3CA; enzyme activity, inhibitor, ADP detection).
With `O=C(CSc1nc2ccccc2cc1C=Nn1c(S)nnc1-c1ccccc1)NCCc1ccccc1` the IC50 was 9770 nM (PPO3; enzyme activity, inhibitor).
The IC50 of `COc1cc2c(cc1O)-c1n[nH]c(-c3ccc(-c4ccc(O)cc4)cc3)c1C2` is reported as 5.41 nM (CHEK1; enzyme activity, inhibitor).
The IC50 of `COc1cc(/C=N/N=C/c2cc(OC)c(OC)c(OC)c2)cc(OC)c1OC` is reported as 154000 nM (AMY2; enzyme activity, inhibitor).
With `COc1ccc(-c2cc(=O)c3cccc(Nc4ncc5cc(C(=O)N(C)C)n(C6CCCC6)c5n4)c3o2)cc1` the IC50 was greater than 10000 nM (CDK4 with cyclin D1; enzyme activity, inhibitor, radiometric).
`Cc1ccc(-c2[nH]nc3c2Cc2cc(CNC4CCC(O)CC4)ccc2-3)s1` (stereo not drawn) gave an IC50 of 500 nM (CHEK1; enzyme activity, inhibitor).
`O=C1C(=Nc2ccccc2Br)c2ccccc2N1Cc1ccccc1` has an IC50 of 95.4 nM (PIK3CA; enzyme activity, inhibitor, ADP detection).
With `N#Cc1cnc(NC(=O)Nc2cc(Cl)ccc2OC2Cc3ccccc3C2)cn1` the IC50 was greater than 10000 nM (CHEK1; enzyme activity, inhibitor).
For `NS(=O)(=O)c1ccc(NC(=O)CCN2CCCCC2C(=O)Nc2ccc(Cl)c(Cl)c2)cc1` (stereo not drawn), the IC50 was 77 nM (CA9; enzyme activity, inhibitor).
For `O=C(CSc1nc2ccccc2cc1C=Nn1c(S)nnc1-c1ccccc1)Nc1ccc(Cl)cc1`, the IC50 was 25700 nM (PPO3; enzyme activity, inhibitor).
With `O=C1C(=Nc2ccc(Cl)cc2)c2ccccc2N1Cc1cccc(Cl)c1` the IC50 was 4.23 nM (PIK3CG; enzyme activity, inhibitor, ADP detection).
For `Cc1nc(N(Cc2ccccc2)c2ccc3c(c2)/C(=C/c2ccccc2)C(=O)N3Cc2ccccc2)c2ccccc2n1` (mixture of isomers), the IC50 was 342 nM (PIK3CD; enzyme activity, inhibitor, ADP detection).
`CC(=O)Nc1cccc2oc(C(=O)NC3CCCN(CC(=O)Nc4ccc(S(N)(=O)=O)cc4)C3)cc12` (stereo not drawn) has an IC50 of 42.7 nM (CA9; enzyme activity, inhibitor).
The IC50 of `Cc1c(N2CCOCC2)oc2c(-c3ccc(Nc4ncc5cc(C(=O)N(C)C)n(C6CCCC6)c5n4)cc3F)cccc2c1=O` is reported as 2760 nM (PIK3CD; enzyme activity, inhibitor, radiometric).
For `CC(C)c1cccc(C(C)C)c1N=C1C(=O)N(Cc2cccc(Cl)c2)c2ccccc21`, the IC50 was 8.44 nM (PIK3CG; enzyme activity, inhibitor, ADP detection).
`Cc1nc(Nc2ccc3c(c2)/C(=C/c2ccccc2C)C(=O)N3C)c2ccccc2n1` gave an IC50 of 35.3 nM (PIK3CA; enzyme activity, inhibitor, ADP detection).
With `CC(C)(C)OC(=O)N1CCN(C(=O)c2ccnc(S(N)(=O)=O)c2)C(c2cccc(Cl)c2)C1` (stereo not drawn) the IC50 was 50 nM (CA9; enzyme activity, inhibitor).
For `CN1CCN(C(=O)[C@H](CCCN[C@@H]2C[C@H]2c2ccc(F)cc2)NC(=O)c2ccc(-n3ccnn3)cc2)CC1`, the IC50 was > 25000 nM and 34300 nM (Amine oxidase [flavin-containing] B (MAOB, Homo sapiens, UniProt P27338); enzyme activity, inhibitor; with preincubation).
For `CCc1ccc(N=C2C(=O)N(Cc3ccccc3)c3ccccc32)cc1`, the IC50 was 65.5 nM (PIK3CA; enzyme activity, inhibitor, ADP detection).
With `N#Cc1cnc(NC(=O)Nc2cc(Cl)ccc2OC2CCC(O)C2)cn1` (stereo not drawn) the IC50 was 6.67 nM (CHEK1; enzyme activity, inhibitor).
`O=C1C(=Nc2ccc(Cl)cc2)c2ccccc2N1Cc1ccc([N+](=O)[O-])cc1` gave an IC50 of 15.7 nM (PIK3CA; enzyme activity, inhibitor, ADP detection).
The IC50 of `N#Cc1cnc(NC(=O)Nc2cc(Cl)ccc2OC2CCCC(O)C2O)cn1` (stereo not drawn) is reported as 10.6 nM (CHEK1; enzyme activity, inhibitor).
`CCC(C(=O)N1C(=O)C(=Nc2ccc(Cl)cc2Br)c2ccccc21)c1ccccc1` (stereo not drawn) has an IC50 of 721 nM (PIK3CD; enzyme activity, inhibitor, ADP detection).
`CNC(=O)c1ccc2c(c1)CC(C)N2Cc1ccoc1C(=O)Nc1ccc(S(N)(=O)=O)cc1` (stereo not drawn) has an IC50 of 20 nM (CA9; enzyme activity, inhibitor).
With `Nc1cccc(-c2ccc3c(c2)Nc2ccc(CC(=O)O)cc2NC3=O)c1` the IC50 was greater than 10000 nM (CHEK1; enzyme activity, inhibitor).

Excerpt of the above:
The IC50 of `COc1cc2c(cc1O)-c1n[nH]c(-c3ccc(-c4ccc(O)cc4)cc3)c1C2` is reported as 5.41 nM (CHEK1; enzyme activity, inhibitor).
The IC50 of `COc1cc(/C=N/N=C/c2cc(OC)c(OC)c(OC)c2)cc(OC)c1OC` is reported as 154000 nM (AMY2; enzyme activity, inhibitor).
With `COc1ccc(-c2cc(=O)c3cccc(Nc4ncc5cc(C(=O)N(C)C)n(C6CCCC6)c5n4)c3o2)cc1` the IC50 was greater than 10000 nM (CDK4 with cyclin D1; enzyme activity, inhibitor, radiometric).
`Cc1ccc(-c2[nH]nc3c2Cc2cc(CNC4CCC(O)CC4)ccc2-3)s1` (stereo not drawn) gave an IC50 of 500 nM (CHEK1; enzyme activity, inhibitor).
`O=C1C(=Nc2ccccc2Br)c2ccccc2N1Cc1ccccc1` has an IC50 of 95.4 nM (PIK3CA; enzyme activity, inhibitor, ADP detection).
With `N#Cc1cnc(NC(=O)Nc2cc(Cl)ccc2OC2Cc3ccccc3C2)cn1` the IC50 was greater than 10000 nM (CHEK1; enzyme activity, inhibitor).
For `NS(=O)(=O)c1ccc(NC(=O)CCN2CCCCC2C(=O)Nc2ccc(Cl)c(Cl)c2)cc1` (stereo not drawn), the IC50 was 77 nM (CA9; enzyme activity, inhibitor).
For `O=C(CSc1nc2ccccc2cc1C=Nn1c(S)nnc1-c1ccccc1)Nc1ccc(Cl)cc1`, the IC50 was 25700 nM (PPO3; enzyme activity, inhibitor).
